{"data": "Results pooled from the literature", "note": "A part holds a random share of what one study measured."}
{"data": "Block 1", "target": "Interferon regulatory factor 7, full length, phosphomimetic (IRF7, Homo sapiens, UniProt Q92985, residues 1-503, S101K/S471D/S472D/S475D/S476D/S477D/S483D/S484D/S487D)", "technique": "protein-binding microarray", "form": "double-stranded DNA, one strand shown", "matrix": "in vitro", "tested at": "250 nM", "notes": "60-bp whole probe", "added": "salmon DNA 0.4 mg/ml", "reference": "random background probes", "direction": "higher = stronger binding", "shared flanks, not repeated": "GCCTAGCAC … GTCTTGATTCGCTTGACGCTGCTG", "Residues (chain)": "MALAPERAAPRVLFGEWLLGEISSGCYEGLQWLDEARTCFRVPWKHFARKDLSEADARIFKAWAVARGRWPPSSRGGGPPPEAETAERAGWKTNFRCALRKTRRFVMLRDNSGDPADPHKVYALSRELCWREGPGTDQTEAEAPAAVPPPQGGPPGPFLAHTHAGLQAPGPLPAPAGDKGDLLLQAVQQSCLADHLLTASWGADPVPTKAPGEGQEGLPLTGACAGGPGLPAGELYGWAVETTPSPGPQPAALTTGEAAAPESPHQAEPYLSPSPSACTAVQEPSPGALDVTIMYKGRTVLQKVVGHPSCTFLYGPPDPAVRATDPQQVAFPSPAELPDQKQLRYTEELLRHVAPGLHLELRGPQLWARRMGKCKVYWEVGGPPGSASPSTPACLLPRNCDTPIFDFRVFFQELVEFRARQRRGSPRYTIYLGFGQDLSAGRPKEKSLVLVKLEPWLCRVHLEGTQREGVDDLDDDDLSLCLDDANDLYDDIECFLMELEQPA"}
{"Strand": "TTAGGTATCGACACTGGGTTAGTGCTA", "log fluorescence": "-0.0818 z-score"}
{"Strand": "TTATAACTGAGACTGGATTAGTGCTAG", "log fluorescence": "0.0466 z-score"}
{"Strand": "TCACATCTCTGCTCCTTACTGTGCTAG", "log fluorescence": "0.621 z-score"}
{"Strand": "GACGGTTCCGGTTTCGGGACGTGCTAG", "log fluorescence": "7.41 z-score"}
{"Strand": "TTAGGTCTGGACTATCGGTTAGTGCTA", "log fluorescence": "-0.456 z-score"}
{"Strand": "TCTTTTTCCTAATTGAACCCGTGCTAG", "log fluorescence": "3.51 z-score"}
{"Strand": "GCCGGACTGGACACTGGGGACGTGCTA", "log fluorescence": "-0.881 z-score"}
{"Strand": "GACGGACTGCTTTTCCAGACGTGCTAG", "log fluorescence": "-0.0795 z-score"}
{"Strand": "CAGAGCATGGATCTGGGAACGTGCTAG", "log fluorescence": "-0.835 z-score"}
{"Strand": "GACGGACTGAGACTGGGGACGTGCTAG", "log fluorescence": "-0.188 z-score"}
{"Strand": "GACGGTTTCGGTTCCGGCACGTGCTAG", "log fluorescence": "12.5 z-score"}
{"Strand": "TTAGGTTTCCTTCTCCCTTAGTGCTAG", "log fluorescence": "2.33 z-score"}
{"Strand": "TTAGGTCTCCTTTTCCGTTAGTGCTAG", "log fluorescence": "1.78 z-score"}
{"Strand": "TTAGGACTGGGGACTTGGTTAGTGCTA", "log fluorescence": "-0.599 z-score"}
{"Strand": "TTAGGTATGGACTATCGGTTAGTGCTA", "log fluorescence": "-0.415 z-score"}
{"Strand": "AGCTGTTTGAGAAATCAGATGGTGCTA", "log fluorescence": "-0.275 z-score"}
{"Strand": "TTAGATTTCTGGACTGGATTAGTGCTA", "log fluorescence": "0.00339 z-score"}
{"Strand": "GACGGTACCGACTTTCGGGACGTGCTA", "log fluorescence": "0.215 z-score"}
{"data": "Block 2", "target": "PABPC1L2, full length, GST fusion (mouse, UniProt A0ABA7IW68)", "technique": "RNAcompete", "form": "RNA", "matrix": "in vitro", "tested at": "20 nM", "notes": "7-mer, probes averaged, single round", "reference": "mean of 7-mers", "direction": "higher = stronger binding", "Construct (chain)": "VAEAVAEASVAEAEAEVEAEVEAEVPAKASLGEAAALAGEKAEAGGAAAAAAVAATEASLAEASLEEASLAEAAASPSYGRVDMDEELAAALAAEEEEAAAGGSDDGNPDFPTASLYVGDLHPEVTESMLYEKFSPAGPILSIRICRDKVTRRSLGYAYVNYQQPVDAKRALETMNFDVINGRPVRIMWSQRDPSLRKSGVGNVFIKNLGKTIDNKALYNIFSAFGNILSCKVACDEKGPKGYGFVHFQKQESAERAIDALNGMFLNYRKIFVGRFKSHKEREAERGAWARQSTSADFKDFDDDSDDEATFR"}
{"Strand": "UUCGAAG", "7-mer Z-score": -0.26}
{"Strand": "UACCAAG", "7-mer Z-score": -0.0409}
{"Strand": "AUCGCGU", "7-mer Z-score": -0.293}
{"Strand": "UCAACGG", "7-mer Z-score": -0.11}
{"Strand": "UCACGUC", "7-mer Z-score": -0.325}
{"Strand": "ACUCUUU", "7-mer Z-score": -0.133}
{"Strand": "GAAUUGA", "7-mer Z-score": 0.00617}
{"Strand": "UCCCCUC", "7-mer Z-score": -0.38}
{"Strand": "GACGAAG", "7-mer Z-score": 0.0569}
{"Strand": "UGGAAAG", "7-mer Z-score": -0.00289}
{"Strand": "GUAAGAA", "7-mer Z-score": 0.138}
{"Strand": "ACGGCUU", "7-mer Z-score": -0.237}
{"Strand": "GGGUUCG", "7-mer Z-score": -0.101}
{"Strand": "GGGGCAC", "7-mer Z-score": 0.591}
{"Strand": "CAUUAUC", "7-mer Z-score": -0.182}
{"Strand": "CCAAAAG", "7-mer Z-score": 1.19}
{"Strand": "GAUGCGA", "7-mer Z-score": -0.00652}
{"Strand": "CACCACA", "7-mer Z-score": 0.0297}
{"Strand": "UCAACGU", "7-mer Z-score": -0.269}
{"data": "Block 3", "target": "Max dimerization protein 1, bHLH-zipper, MAX partner unstated (MXD1, Homo sapiens, UniProt Q05195, residues 56-136)", "technique": "protein-binding microarray", "form": "double-stranded DNA, one strand shown", "matrix": "in vitro", "tested at": "not given", "notes": "k-mer, scored over probes, only values ≥0.25", "direction": "higher = stronger binding", "Target sequence (chain)": "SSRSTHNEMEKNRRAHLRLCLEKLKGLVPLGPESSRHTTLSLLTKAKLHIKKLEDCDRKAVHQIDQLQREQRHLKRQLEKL"}
{"Strand": "AAAACGTG", "E-score": 0.437}
{"Strand": "CATGTCTC", "E-score": 0.364}
{"Strand": "CCCCGTGC", "E-score": 0.377}
{"Strand": "CATGCTAC", "E-score": 0.365}
{"Strand": "ACCCATGC", "E-score": 0.391}
{"Strand": "CGTGTAAC", "E-score": 0.27}
{"Strand": "GAACATGC", "E-score": 0.332}
{"Strand": "ACCCACCA", "E-score": 0.295}
{"Strand": "CGTGACAG", "E-score": 0.284}
{"Strand": "GACACGCC", "E-score": 0.325}
{"Strand": "CATGGCAA", "E-score": 0.321}
{"Strand": "CTCGTGAC", "E-score": 0.355}
{"Strand": "GGGGGTAA", "E-score": 0.35}
{"Strand": "CGTGGCCC", "E-score": 0.312}
{"data": "Block 4", "target": "RING finger protein unkempt homolog, zinc fingers 1-6, GST-SBP tag (UNK, Homo sapiens, UniProt Q9C0B0, residues 30-357)", "technique": "RNA Bind-n-Seq", "form": "RNA", "matrix": "in vitro", "tested at": "not given", "notes": "RNA with constant flanks, human and mouse sites, ends assumed", "reference": "input RNA pool", "direction": "higher = stronger binding", "shared flanks, not repeated": "GGGAGUUCUACAGUCCGACGAUC … CAACAGAGGAUUGAGCAUCA", "UniProt Q9C0B0, sequence (30-357, looked up)": "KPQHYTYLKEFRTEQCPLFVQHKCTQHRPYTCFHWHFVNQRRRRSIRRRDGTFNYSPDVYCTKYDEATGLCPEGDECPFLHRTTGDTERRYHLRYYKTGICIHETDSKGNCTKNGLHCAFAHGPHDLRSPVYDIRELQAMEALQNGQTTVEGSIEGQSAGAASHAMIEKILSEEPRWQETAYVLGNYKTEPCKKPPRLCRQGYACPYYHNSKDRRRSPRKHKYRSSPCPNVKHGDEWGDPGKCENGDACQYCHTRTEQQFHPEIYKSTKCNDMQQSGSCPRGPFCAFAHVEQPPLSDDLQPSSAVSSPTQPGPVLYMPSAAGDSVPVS"}
{"Strand": "CACUGGGUCUACUAUCUGUAAAAAAUAUACAUAUAAAUAUAUAUAUACUGUUUGUUUAAAAUAGAGUAUUUUUAUUUCAUUCCUUAACUCAUCAUCACAGCAGUGGUAUUGCACUUCAGA", "bound/input enrichment [ratio]": 2.01}
{"Strand": "GUUUUAUUACUGCUUGGAGAUGAGUCCAUGCAGAAACUUUUUGAAGGAGGAAAAGGCAGUGUGUUCCAAAGGGUGCUCUCCUGGAUCCCAUCGAAUAACCACCAGCUGCAGCUGGCUGGG", "bound/input enrichment [ratio]": 0.226}
{"Strand": "UGCCUUGUUUUGUGUGUUCUAAAUACUUUUUUUAAUGAAAAAAUGUUUUUUGGUUUUAAUGGUGUUACGUGGUUUGUGUAUUAAUUUUUUUUCUUGUCCAUAUCACACCACCAAAGGCUU", "bound/input enrichment [ratio]": 0.289}
{"Strand": "UUGUGCUGAUUUUUGGUGAUCAAGCCUCAGUCCCCUUCAUAUUACCCUCUCCUUUUUAAAAAUUACGUGUGCACAGAGAGGUCACCUUUUUCAGGACAUUGCAUUUUCAGGCUUGUGGUG", "bound/input enrichment [ratio]": 0.793}
{"Strand": "UUUGGAGCUCCUCCUCAUGCUGGUGGUGGCAUUGGGCUGGAAAGGGUGACGAUGCUGUUUUUAGGAUUGCAUAACGUACGCCAGACCUCAAUGUUCCCUCGUGACCCCAAACGACUCACG", "bound/input enrichment [ratio]": 0.117}
{"Strand": "GAUGAGGUCCAGGCUAUUUGCCAACCUGAGGGAAAUUACUGCCCGUCAGCAGAGUUCAUUUAGCAGACUAUGUAGGCAAUGGAACCAAAGUUUUUUACUUUUUUUUUCCUGUUUUUUUUU", "bound/input enrichment [ratio]": 0.829}
{"Strand": "UCAACAGGGGAUGCUGCGCGCCAGGGGGUGUACGAGAACUUCAGGCGGGAACUGGAGAUGAGUACCACCAACAGUGAGAGCCUGGAGGAGGCUGGCUCUGCGCACAGCGAUGAGCAGAGC", "bound/input enrichment [ratio]": 0.203}
{"Strand": "UUUUUGCUUCCUUGUGGACAACUGAGAGUUGCUGUGGCUUGUGUGUGUGUGUGUGUGUGUGUGUGUGUGUGUGUGUGUGUGUAGUGGAAAUGUCACUAUGUUCCUGUCAUUUGUGGCUCA", "bound/input enrichment [ratio]": 0.888}
{"Strand": "GCUUGUGCAGCUUACAAUCUAUUUAACUAUUAGAGGCCCUGUGAGAUGUAGGCAGUUAUUUACAGAUGAGAAAACUAACACAGCAGUGGCAAUGCUGGGAAUGGCCAACAGGCUUGGAAU", "bound/input enrichment [ratio]": 0.486}
{"Strand": "UUCUAGUGAAUCUGUGAUAUUGGAAAUUAUUAUUAUGGACAGGGUCAUCCCAUGAAGCCUCAUAGAAUCCGCAUGACCCAUAACUUGCUGUUAAAUUAUGGCUUAUACAGAAAAAUGGAA", "bound/input enrichment [ratio]": 0.423}
{"Strand": "UGUGUCUUACGUGCCACCACGGCGUUGUACCUGUAGGACUCUCAUUCGGGAUGAUUGGAAUAGCUUCUGGAAUUUGUUCAAGUUUUGGGUAUGUUUAAUCUGUUAUGUACUAGUGUUCUG", "bound/input enrichment [ratio]": 0.78}
{"data": "Block 5", "target": "Sal-like protein 4, full length isoform A (SALL4, Homo sapiens, UniProt Q9UJQ4, residues 1-1053)", "technique": "universal PBM", "form": "double-stranded DNA, one strand shown", "matrix": "in vitro", "tested at": "600 nM", "notes": "8-mer, flanks averaged, mean of replicates", "direction": "higher = stronger binding", "UniProt Q9UJQ4, sequence (whole entry, looked up)": "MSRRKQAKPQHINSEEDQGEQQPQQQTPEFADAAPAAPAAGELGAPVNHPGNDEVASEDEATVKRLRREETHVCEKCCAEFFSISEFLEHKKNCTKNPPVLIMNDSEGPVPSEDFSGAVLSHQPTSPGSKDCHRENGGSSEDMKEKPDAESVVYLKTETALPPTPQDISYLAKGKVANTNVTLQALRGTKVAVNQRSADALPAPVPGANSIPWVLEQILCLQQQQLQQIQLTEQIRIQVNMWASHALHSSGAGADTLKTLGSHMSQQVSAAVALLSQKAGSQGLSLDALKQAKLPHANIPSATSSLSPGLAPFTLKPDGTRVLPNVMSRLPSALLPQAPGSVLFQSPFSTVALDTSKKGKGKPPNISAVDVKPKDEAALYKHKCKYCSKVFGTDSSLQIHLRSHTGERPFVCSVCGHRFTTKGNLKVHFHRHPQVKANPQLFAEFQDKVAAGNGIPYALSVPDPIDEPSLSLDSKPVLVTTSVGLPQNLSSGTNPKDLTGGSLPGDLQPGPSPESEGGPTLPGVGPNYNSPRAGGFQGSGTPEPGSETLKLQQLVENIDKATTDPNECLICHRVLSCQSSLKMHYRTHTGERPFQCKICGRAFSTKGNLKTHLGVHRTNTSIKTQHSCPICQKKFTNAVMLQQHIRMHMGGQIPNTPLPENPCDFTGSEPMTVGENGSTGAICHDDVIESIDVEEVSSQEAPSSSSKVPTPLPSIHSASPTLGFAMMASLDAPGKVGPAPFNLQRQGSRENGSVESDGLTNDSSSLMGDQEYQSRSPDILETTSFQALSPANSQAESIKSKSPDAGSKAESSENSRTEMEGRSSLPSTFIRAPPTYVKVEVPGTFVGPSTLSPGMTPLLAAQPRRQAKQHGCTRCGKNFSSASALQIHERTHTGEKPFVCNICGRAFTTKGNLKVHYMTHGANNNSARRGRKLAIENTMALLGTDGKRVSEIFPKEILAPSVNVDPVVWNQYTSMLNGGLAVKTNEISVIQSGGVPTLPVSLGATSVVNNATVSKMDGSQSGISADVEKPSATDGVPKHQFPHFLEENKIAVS"}
{"Strand": "GATCTCGC", "E-score": -0.0853}
{"Strand": "CACTGAAG", "E-score": -0.0128}
{"Strand": "CAGAGTAA", "E-score": -0.00522}
{"Strand": "ACGAAAGA", "E-score": 0.168}
{"Strand": "GGCTCCCC", "E-score": -0.362}
{"Strand": "ATCAGTAC", "E-score": 0.147}
{"Strand": "AAGCGCGA", "E-score": -0.141}
{"Strand": "CCGACACG", "E-score": -0.295}
{"Strand": "AGGTTTGG", "E-score": -0.112}
{"Strand": "GTGCCTTA", "E-score": -0.0142}
{"Strand": "TGTATTAA", "E-score": 0.378}
{"Strand": "ACGCGACA", "E-score": -0.0184}
{"Strand": "CCAGGGCA", "E-score": -0.358}
{"Strand": "TAAGTATA", "E-score": 0.329}
{"Strand": "ACGTGCGC", "E-score": -0.118}
{"Strand": "CATGTTGG", "E-score": 0.0584}
{"Strand": "CTAACACC", "E-score": -0.0928}
{"Strand": "ACACAAAA", "E-score": 0.234}
{"Strand": "TACGTTCA", "E-score": 0.103}
{"Strand": "TAGAGCCA", "E-score": -0.0665}
{"Strand": "TCTAGCCA", "E-score": -0.00383}
{"Strand": "ATGGCCCC", "E-score": -0.361}
{"Strand": "ATAAATCA", "E-score": 0.333}
{"Strand": "AAGCATAG", "E-score": 0.0292}
{"Strand": "ATGTGTGA", "E-score": 0.0924}
{"note": "Repeated from above (block 3):"}
{"Strand": "CATGGCAA", "E-score": 0.321}
{"Strand": "AAAACGTG", "E-score": 0.437}
{"Strand": "CGTGTAAC", "E-score": 0.27}
{"Strand": "CATGCTAC", "E-score": 0.365}
{"Strand": "CATGTCTC", "E-score": 0.364}
{"Strand": "CGTGACAG", "E-score": 0.284}
{"Strand": "CTCGTGAC", "E-score": 0.355}
{"Strand": "CGTGGCCC", "E-score": 0.312}
